Measured values collected from several papers.
Lines come from different studies, so protocols differ.
Organism: Staphylococcus aureus

| Structure (SMILES) | test | test system | conditions | MIC |
| --- | --- | --- | --- | --- |
| CC[C@H](C)[C@H](NC(=O)[C@H](CCCNC(=N)N)NC(=O)[C@H](CCCNC(=N)N)NC(=O)[C@H](CCCCN)NC(=O)[C@H](CC(N)=O)NC(=O)[C@H](CS)NC(=O)[C@H](Cc1ccc(O)cc1)NC(=O)CNC(=O)CNC(=O)[C@H](CCCNC(=N)N)NC(=O)[C@H](CCCCN)NC(=O)[C@H](CCCNC(=N)N)NC(=O)[C@H](CCCCN)NC(=O)[C@H](CC(C)C)NC(=O)[C@H](CC(C)C)NC(=O)[C@H](CS)NC(=O)[C@H](Cc1c[nH]cn1)NC(=O)[C@H](C)NC(=O)[C@H](C)NC(=O)[C@H](CS)NC(=O)[C@H](C)NC(=O)[C@H](C)NC(=O)[C@H](Cc1c[nH]cn1)NC(=O)[C@H](CC(N)=O)NC(=O)[C@@H](NC(=O)[C@H](CCCCN)NC(=O)[C@@H](NC(=O)CNC(=O)[C@H](CCCCN)NC(=O)[C@H](C)NC(=O)[C@H](CCC(=O)O)NC(=O)[C@H](C)NC(=O)[C@H](CO)NC(=O)[C@H](CC(C)C)NC(=O)[C@H](CC(C)C)NC(=O)[C@H](CC(=O)O)NC(=O)[C@H](CS)NC(=O)[C@@H](NC(=O)[C@@H](N)C(C)C)[C@@H](C)O)C(C)C)C(C)C)C(=O)N[C@@H](CS)C(=O)N[C@H](C(=O)N[C@@H](CS)C(=O)N[C@@H](CCCNC(=N)N)C(=O)N[C@@H](CC(N)=O)C(N)=O)C(C)C |  | ATCC 29213 |  | 13.2 µg/mL |
| N=C(N)NCCC[C@H](NC(=O)[C@H](Cc1c[nH]c2ccccc12)NC(=O)[C@H](CCC(N)=O)NC(=O)[C@H](Cc1c[nH]c2ccccc12)NC(=O)[C@H](CCCNC(=N)N)NC(=O)[C@H](Cc1c[nH]c2ccccc12)NC(=O)[C@H](CCC(N)=O)NC(=O)[C@H](Cc1c[nH]c2ccccc12)NC(=O)[C@H](CCCNC(=N)N)NC(=O)CCCCCNC(=O)/C=C/c1ccc(O)c(O)c1)C(N)=O | broth microdilution | ATCC 25923 | 24 h, 37 °C | 28 µM |
| CCCCCCCCCCCCCCCCCCCCCCSCC1OC(OC2C(N)CC(N)C(OC3OC(CN)C(O)CC3N)C2O)C(O)C(N)C1O (stereo not shown) |  | NorA |  | > 150 µg/mL |
| CC(C)C[C@@H]1NC(=O)[C@@H](CC(C)C)NC(=O)[C@H](CCN)NC(=O)[C@@H](NC(=O)[C@H](CCN)NC(=O)[C@@H](NC(=O)CCCCn2cc(C[C@H](NC(=O)CC[C@@H]3NC(=O)[C@H](CCN)NC(=O)[C@H](Cc4ccc(O)cc4)NC(=O)[C@H]([C@@H](C)O)NC(=O)[C@H](C(C)C)NC(=O)[C@@H]4CCCN4C(=O)[C@@H](C)NC(=O)[C@H](CO)NC(=O)[C@H](C)NC(=O)[C@H](C(C)(C)C)NC(=O)[C@H](CCO)NC(=O)[C@H](Cc4c[nH]c5ccccc45)NC(=O)[C@H](CCO)NC(=O)[C@@H](CCN)NC3=O)C(N)=O)nn2)[C@@H](C)O)CCNC(=O)[C@H]([C@@H](C)O)NC(=O)[C@H](CCN)NC(=O)[C@H](CCN)NC1=O | broth microdilution | MRSA USA300, CAMHB with polysorbate-80 | 16 h | > 64 µg/mL |
| C/C(=N/NC(=N)N)c1nnn(-c2ccc(C#CC(C)(C)C)cc2)c1C | broth microdilution | MRSA USA300 NRS384 |  | ≤ 4 µg/mL |
| CC(C)C[C@@H]1NC(=O)[C@H](C)NC(=O)[C@H](NC(=O)[C@H](CO)NC(=O)[C@@H](CCCCN)NC(=O)[C@@H](CC(C)C)NC(=O)[C@@H](N)Cc2ccccc2)[C@H](C)OC(=O)[C@H](CC(C)C)NC1=O |  | MSSA ATCC 29213 | TFA salt | 8 µg/mL |
| CN[C@@H]1[C@H](O)[C@H](NC)[C@H]2O[C@]3(O)[C@H](O[C@@H]2[C@H]1O)O[C@H](C)C[C@@]3(O)CNCc1ccc(Cl)cc1 |  | MRSA NRS70 |  | 12.5 to 25 µg/mL |
| O=C(O)c1ccc(-n2cc(/C=N/Nc3ccc([N+](=O)[O-])cc3)c(-c3cccc(F)c3)n2)cc1 | microbial growth | ATCC700699 | drug-resistant strain | 3.12 µg/mL |
| NCCCC[C@@H]1NC(=O)[C@@H](CCCCN)NC(=O)[C@H](CCCCN)NC(=O)[C@@H](CCCCN)NC(=O)[C@H](Cc2c[nH]c3ccccc23)NC(=O)[C@@H](Cc2c[nH]c3ccccc23)NC(=O)[C@@H](N)CSCc2ccc(cc2)CSC[C@@H](C(N)=O)NC(=O)[C@@H](Cc2c[nH]c3ccccc23)NC(=O)[C@H](Cc2c[nH]c3ccccc23)NC(=O)[C@@H](CCCCN)NC1=O |  | Newman MSSA |  | 16 to 32 µg/mL |
| NC(=O)c1c(F)ccc(OCc2nc3cc(Cl)cnc3s2)c1F | broth microdilution | ATCC 29213 | 2% BSA added | 2 µg/mL |
| CC(=O)N[C@@H](CCCNC(=N)N)C(=O)N[C@@H](Cc1c[nH]c2ccccc12)C(=O)N[C@@H](CCCNC(=N)N)C(=O)N[C@@H](Cc1c[nH]c2ccccc12)C(=O)N[C@@H](Cc1c[nH]c2ccccc12)C(=O)N[C@@H](CCCCN)C(=O)N1CCC[C@H]1C(=O)N[C@H](C(N)=O)C(C)C |  | MSSA ATCC 29213, MEM medium | overnight, 37 °C | 11.3 to 22.7 µM |
| CCCCCCCCCCCCCC(=O)N[C@@H]1CCNC(=O)[C@H](CC(=O)O)NC(=O)[C@H](C(C)C)NC(=O)[C@@H](Cc2ccc(O)cc2)NC(=O)[C@H](CCN)NC(=O)[C@H](CC(C)C)NC(=O)[C@@H](Cc2ccccc2)NC(=O)[C@H](CCN)NC(=O)[C@H](CC(C)C)NC(=O)[C@H](CCN)NC(=O)[C@H]([C@@H](C)O)NC1=O | broth microdilution | BNCC 186335 |  | 4 µg/mL |
| CCCO[C@H]1[C@H](O)[C@@H](N)[C@@H](O[C@H]2[C@H](O[C@@H]3O[C@H](CO)[C@@H](O[C@H]4O[C@@H](CN)[C@@H](O)[C@H](O)[C@H]4N)[C@H]3O)[C@@H](O)[C@H](N)C[C@@H]2N)O[C@@H]1CO | broth microdilution | MRSA isolate AG 045 |  | 8 µg/mL |
| CC[C@@H](C)[C@H]1NC(=O)[C@H]([C@@H](C)CC)NC(=O)[C@@H](CCCN)NC(=O)[C@@H](NC(=O)[C@@H](NC(=O)[C@@H](CCC(=O)O)NC(=O)[C@H](CC(C)C)NC(=O)[C@@H]2CSC([C@@H](N)[C@@H](C)CC)=N2)[C@@H](C)CC)CCCCNC(=O)[C@H](CC(N)=O)NC(=O)[C@@H](CC(=O)O)NC(=O)[C@H](Cc2c[nH]cn2)NC1=O |  | USA300 MRSA | 18 h, 37 °C, with: ZnSO4 0.3 mM | 4 µg/mL |
| CC[C@H](C)[C@@H]1NC(=O)CNC(=O)[C@H](CCCCN)NC(=O)[C@H](C)NC(=O)[C@H](CCC(=O)O)NC(=O)[C@H](Cc2ccccc2)NC(=O)[C@H](CO)NC(=O)[C@H](CC(C)C)NC(=O)[C@H](C(C)C)NC(=O)[C@H](CC(=O)O)NC(=O)[C@@H](NC(=O)[C@@H](NC(=O)[C@@H](N)C(C)C)[C@@H](C)O)CSSC[C@@H]2NC(=O)[C@H](CO)NC(=O)CNC(=O)CNC(=O)[C@H](CCCCN)NC(=O)[C@H](CCCCN)NC(=O)[C@H](CCCNC(=N)N)NC(=O)[C@H](CC(C)C)NC(=O)[C@H](C)NC(=O)[C@H]([C@@H](C)CC)NC(=O)[C@H](C)NC(=O)[C@H](Cc3c[nH]cn3)NC(=O)[C@H](CC(C)C)NC(=O)[C@H](C)NC(=O)[C@H](CSSC[C@@H](C(=O)N[C@H](C(=O)N[C@@H](C)C(=O)N[C@@H](CCCNC(=N)N)C(=O)N[C@@H](CC(N)=O)C(=O)O)C(C)C)NC(=O)[C@H](C(C)C)NC(=O)CNC(=O)[C@H](CC(N)=O)NC(=O)[C@H](CCC(N)=O)NC2=O)NC(=O)[C@H](C)NC(=O)[C@H](CO)NC(=O)[C@H](Cc2c[nH]cn2)NC(=O)[C@H](CC(N)=O)NC(=O)[C@H](C(C)C)NC(=O)[C@H](C)NC1=O | broth microdilution | KCTC 1621 | 16 h, 37 °C | > 100 µM |
| NC(=O)c1c(F)ccc(OCc2nc3cc(Cl)cnc3s2)c1F | microbial growth | ATCC43300 | drug-resistant strain, clinical isolate | 1 µg/mL |
| COc1cc(/C=N/N2C(=O)c3ccccc3NC2c2ccc(O)c(OC)c2)ccc1O (stereo not shown) | microbial growth, broth dilution |  | 24 h, drug-resistant strain, clinical isolate | > 256 µg/mL |
| CN1C(=O)[C@@H]2NC(=O)[C@@H]3NC(=O)[C@@H](c4ccc(O)cc4)NC(=O)[C@H](NC(=O)C(NCc4ccc(B(O)O)cc4)c4ccc(O)cc4)Cc4c[nH]c5cc(ccc45)-c4cc3cc(c4O)Oc3ccc(cc3)C[C@H]1C(=O)N[C@@H](C(=O)O)c1ccc(O)c(c1)Oc1ccc2cc1 (stereo partly shown) |  | ATCC 33591 MRSA, Mueller-Hinton broth |  | 8 µg/mL |
| CC[C@@H]1NC(=O)[C@@H]([C@@H](C)O)NC(=O)CNC(=O)[C@H](CC(=O)O)NC(=O)CNC(=O)[C@H](CC(=O)O)NC(=O)CNC(=O)[C@H]2CCCCN2C(=O)[C@@H](NC(=O)[C@H](CC(=O)O)NC(=O)/C=C/CCCCCCCCCC(C)C)CNC(=O)[C@@H]2CCCN2C1=O |  | MRSA USA300 | with: Ca2+ 1 mM | 32 µg/mL |

Repeated from above:
| Structure (SMILES) | test | test system | conditions | MIC |
| --- | --- | --- | --- | --- |
| CC(C)C[C@@H]1NC(=O)[C@H](C)NC(=O)[C@H](NC(=O)[C@H](CO)NC(=O)[C@@H](CCCCN)NC(=O)[C@@H](CC(C)C)NC(=O)[C@@H](N)Cc2ccccc2)[C@H](C)OC(=O)[C@H](CC(C)C)NC1=O |  | MSSA ATCC 29213 | TFA salt | 8 µg/mL |
